Experimental data from different studies.
Protocols differ between the studies behind these lines. ± gives the spread as reported.
Chymotrypsinogen A: Chymotrypsinogen A (Bos taurus, UniProt P00766)
GBA2: Beta-glucosidase (GBA2, Homo sapiens, UniProt Q9HCG7)
UniProt Q9HCG7, sequence (whole entry, looked up): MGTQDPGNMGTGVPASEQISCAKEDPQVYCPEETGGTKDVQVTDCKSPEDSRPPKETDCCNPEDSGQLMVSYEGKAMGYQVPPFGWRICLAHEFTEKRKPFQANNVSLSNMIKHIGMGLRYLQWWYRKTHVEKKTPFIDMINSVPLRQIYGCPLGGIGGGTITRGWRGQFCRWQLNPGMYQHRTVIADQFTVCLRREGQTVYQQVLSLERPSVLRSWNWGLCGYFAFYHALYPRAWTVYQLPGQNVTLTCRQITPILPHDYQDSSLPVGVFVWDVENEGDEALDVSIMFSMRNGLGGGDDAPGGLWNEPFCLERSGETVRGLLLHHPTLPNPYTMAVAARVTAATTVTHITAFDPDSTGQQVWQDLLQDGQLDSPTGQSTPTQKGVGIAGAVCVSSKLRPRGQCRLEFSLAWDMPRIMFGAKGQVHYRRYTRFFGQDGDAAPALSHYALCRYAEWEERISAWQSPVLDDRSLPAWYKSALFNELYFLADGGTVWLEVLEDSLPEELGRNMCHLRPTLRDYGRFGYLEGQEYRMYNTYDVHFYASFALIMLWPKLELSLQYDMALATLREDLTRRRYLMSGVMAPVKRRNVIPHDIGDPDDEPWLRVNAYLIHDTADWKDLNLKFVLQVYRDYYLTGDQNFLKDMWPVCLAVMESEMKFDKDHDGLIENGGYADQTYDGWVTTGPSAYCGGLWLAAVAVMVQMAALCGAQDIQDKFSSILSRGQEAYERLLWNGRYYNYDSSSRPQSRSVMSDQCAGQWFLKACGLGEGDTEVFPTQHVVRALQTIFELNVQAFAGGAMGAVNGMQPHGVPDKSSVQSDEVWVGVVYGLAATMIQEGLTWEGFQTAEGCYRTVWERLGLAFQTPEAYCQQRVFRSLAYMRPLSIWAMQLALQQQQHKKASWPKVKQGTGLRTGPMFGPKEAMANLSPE
PPARA ligand-binding domain: Peroxisome proliferator-activated receptor alpha, ligand-binding domain (PPARA, Homo sapiens, UniProt Q07869)
UniProt Q07869, sequence (whole entry, looked up): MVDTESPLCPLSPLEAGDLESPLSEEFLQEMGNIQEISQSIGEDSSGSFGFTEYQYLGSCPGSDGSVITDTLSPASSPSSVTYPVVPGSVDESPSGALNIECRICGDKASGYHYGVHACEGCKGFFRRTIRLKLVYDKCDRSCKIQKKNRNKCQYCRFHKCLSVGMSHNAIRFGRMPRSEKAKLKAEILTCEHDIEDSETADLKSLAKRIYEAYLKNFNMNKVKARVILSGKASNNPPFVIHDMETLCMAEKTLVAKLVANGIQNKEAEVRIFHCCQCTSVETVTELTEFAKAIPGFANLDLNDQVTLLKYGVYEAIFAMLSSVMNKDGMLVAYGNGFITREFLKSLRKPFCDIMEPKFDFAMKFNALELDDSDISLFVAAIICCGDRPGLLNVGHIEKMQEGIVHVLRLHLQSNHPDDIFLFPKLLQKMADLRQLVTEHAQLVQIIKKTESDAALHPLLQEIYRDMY
UniProt P10997, sequence (whole entry, looked up): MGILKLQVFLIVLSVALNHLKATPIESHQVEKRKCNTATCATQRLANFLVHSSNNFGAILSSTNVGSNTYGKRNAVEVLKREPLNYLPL
UniProt P10635, sequence (whole entry, looked up): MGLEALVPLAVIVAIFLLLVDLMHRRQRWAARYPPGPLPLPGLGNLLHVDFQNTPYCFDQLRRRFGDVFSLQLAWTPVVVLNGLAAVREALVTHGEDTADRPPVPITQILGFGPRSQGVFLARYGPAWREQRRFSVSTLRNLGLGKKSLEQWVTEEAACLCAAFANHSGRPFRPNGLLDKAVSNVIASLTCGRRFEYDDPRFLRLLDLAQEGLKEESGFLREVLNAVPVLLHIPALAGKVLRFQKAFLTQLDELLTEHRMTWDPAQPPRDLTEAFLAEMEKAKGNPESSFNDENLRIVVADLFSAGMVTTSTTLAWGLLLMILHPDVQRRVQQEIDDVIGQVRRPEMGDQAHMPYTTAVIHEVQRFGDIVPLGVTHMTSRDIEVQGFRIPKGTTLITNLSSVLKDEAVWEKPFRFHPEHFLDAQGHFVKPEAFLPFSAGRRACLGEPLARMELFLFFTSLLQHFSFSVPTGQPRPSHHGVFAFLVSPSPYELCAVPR
UniProt P30874, sequence (whole entry, looked up): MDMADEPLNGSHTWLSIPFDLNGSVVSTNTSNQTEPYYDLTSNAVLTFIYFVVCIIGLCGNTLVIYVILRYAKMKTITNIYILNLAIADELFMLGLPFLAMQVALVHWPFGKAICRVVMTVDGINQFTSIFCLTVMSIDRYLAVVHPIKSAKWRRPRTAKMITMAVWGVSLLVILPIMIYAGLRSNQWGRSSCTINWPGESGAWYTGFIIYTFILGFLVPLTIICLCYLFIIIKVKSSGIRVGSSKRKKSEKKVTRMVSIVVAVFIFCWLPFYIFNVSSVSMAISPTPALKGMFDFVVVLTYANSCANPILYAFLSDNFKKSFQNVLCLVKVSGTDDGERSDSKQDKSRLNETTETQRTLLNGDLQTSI
UniProt Q15139, sequence (whole entry, looked up): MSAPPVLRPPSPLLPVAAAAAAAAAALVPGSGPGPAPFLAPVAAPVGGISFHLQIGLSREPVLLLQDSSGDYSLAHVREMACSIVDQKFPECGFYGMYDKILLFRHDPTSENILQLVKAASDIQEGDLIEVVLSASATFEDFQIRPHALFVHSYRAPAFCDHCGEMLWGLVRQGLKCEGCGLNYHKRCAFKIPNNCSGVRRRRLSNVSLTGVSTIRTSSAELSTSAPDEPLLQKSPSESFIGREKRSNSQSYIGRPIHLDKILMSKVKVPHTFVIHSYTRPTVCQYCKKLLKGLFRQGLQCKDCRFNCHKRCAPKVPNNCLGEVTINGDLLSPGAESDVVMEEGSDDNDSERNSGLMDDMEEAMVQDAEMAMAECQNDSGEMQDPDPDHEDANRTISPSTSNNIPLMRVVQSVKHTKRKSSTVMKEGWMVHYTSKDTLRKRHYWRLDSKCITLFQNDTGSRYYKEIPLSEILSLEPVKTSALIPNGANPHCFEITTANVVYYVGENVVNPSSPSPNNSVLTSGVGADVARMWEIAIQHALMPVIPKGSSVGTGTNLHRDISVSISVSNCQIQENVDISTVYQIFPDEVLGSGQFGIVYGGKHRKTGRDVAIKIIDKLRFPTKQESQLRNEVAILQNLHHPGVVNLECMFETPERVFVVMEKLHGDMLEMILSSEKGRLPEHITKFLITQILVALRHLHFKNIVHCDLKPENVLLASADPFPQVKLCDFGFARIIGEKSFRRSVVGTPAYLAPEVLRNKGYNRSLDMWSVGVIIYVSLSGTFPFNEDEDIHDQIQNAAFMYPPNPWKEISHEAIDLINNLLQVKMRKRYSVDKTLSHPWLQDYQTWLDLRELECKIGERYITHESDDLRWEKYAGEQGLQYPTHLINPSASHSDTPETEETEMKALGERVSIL
UniProt P03372, sequence (whole entry, looked up): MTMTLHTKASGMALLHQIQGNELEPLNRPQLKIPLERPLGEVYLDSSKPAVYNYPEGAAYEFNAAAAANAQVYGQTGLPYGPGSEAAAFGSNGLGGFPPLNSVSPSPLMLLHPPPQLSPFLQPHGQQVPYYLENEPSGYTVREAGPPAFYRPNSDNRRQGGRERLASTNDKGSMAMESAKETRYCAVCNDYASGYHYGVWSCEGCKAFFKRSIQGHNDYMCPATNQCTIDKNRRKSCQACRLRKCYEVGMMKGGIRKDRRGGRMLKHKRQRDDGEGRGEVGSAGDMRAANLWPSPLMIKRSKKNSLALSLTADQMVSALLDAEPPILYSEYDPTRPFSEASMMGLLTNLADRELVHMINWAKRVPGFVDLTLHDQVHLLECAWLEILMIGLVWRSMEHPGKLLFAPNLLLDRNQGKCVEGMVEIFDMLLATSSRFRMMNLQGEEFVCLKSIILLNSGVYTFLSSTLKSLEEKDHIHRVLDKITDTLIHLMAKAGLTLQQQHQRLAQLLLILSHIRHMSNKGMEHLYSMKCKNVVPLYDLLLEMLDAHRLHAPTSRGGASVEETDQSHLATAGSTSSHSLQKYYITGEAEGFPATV
UniProt Q9Y243, sequence (whole entry, looked up): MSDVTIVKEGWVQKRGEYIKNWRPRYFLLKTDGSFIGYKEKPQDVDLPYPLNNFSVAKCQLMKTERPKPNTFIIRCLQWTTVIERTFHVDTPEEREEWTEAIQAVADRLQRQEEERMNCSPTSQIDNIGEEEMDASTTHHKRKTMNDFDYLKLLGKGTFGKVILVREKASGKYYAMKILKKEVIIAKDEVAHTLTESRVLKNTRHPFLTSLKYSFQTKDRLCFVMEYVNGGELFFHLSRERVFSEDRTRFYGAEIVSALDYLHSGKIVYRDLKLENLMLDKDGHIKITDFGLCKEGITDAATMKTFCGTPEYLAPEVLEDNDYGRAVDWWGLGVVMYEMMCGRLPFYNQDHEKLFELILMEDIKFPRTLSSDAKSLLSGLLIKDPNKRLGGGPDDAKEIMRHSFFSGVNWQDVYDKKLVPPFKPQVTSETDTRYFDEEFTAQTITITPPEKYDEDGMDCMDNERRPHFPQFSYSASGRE
UniProt Q8IXJ6, sequence (whole entry, looked up): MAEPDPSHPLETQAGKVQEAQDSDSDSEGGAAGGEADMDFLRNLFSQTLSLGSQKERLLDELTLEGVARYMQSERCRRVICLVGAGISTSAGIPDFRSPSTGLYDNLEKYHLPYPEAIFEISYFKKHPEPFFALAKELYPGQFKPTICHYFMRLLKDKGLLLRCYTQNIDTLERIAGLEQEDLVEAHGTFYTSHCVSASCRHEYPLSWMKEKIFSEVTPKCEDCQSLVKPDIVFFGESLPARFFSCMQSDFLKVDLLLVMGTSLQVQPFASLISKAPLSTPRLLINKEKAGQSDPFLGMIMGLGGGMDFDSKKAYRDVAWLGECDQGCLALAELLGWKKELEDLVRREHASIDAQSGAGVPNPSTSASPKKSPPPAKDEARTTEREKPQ

SMILES	target or system	test	test system	setting	scale	quantity	value
C[C@@H](O)[C@@H]1NC(=O)[C@H](CCCCN)NC(=O)[C@@H](Cc2c[nH]c3ccccc23)NC(=O)[C@H](Cc2ccc(NC(N)=O)cc2)NC(=O)[C@H](NC(=O)[C@H](Cc2ccccc2)NC(N)=O)CSSC[C@@H](C(=O)N[C@@H](Cc2ccc3ccccc3c2)C(N)=O)NC1=O	Somatostatin receptor type 2 (SSTR2, Homo sapiens, UniProt P30874)	ligand displacement, radioligand	–	–	–	IC50	89 nM
Cc1cc(C)c(S(=O)(=O)N(CC(=O)O)c2ccc(Nc3ccnc(N4CCCC4)n3)cc2)c(C)c1	RAC-gamma serine/threonine-protein kinase (AKT3, Homo sapiens, UniProt Q9Y243)	enzyme activity, inhibitor	–	–	–	IC50	> 100000 nM
Cc1ncsc1-c1ccc(C(C)NC(=O)C2CC(O)CN2C(=O)C(NC(=O)CCCCCCCCCCN2CCCC(Nc3ncc(Cl)c(Nc4ccccc4S(=O)(=O)C(C)C)n3)C2)C(C)(C)C)cc1 (stereo not drawn)	22Rv1	RNA-seq, refers to: SENP8 mRNA	–	concentration not given	relative to: DMSO	log2 fold change	-1.45
O=C(Nc1ccccc1O)C(C(F)(F)F)C(F)(F)F	Chymotrypsinogen A	enzyme activity, inhibitor, fluorescence	–	–	–	IC50	38000 nM
Cc1cc(-c2cc(=O)c3c(O)cc(O)c([C@H]4CCN(C)C[C@H]4O)c3o2)no1	Cyclin-dependent kinase 9, with cyclin T1 (CDK9, Homo sapiens, UniProt P50750)	kinase activity, inhibitor	–	added: Cyclin T1 complex, GST-CTD substrate	–	IC50	19.9 nM
OC[C@H]1[C@@H](O)[C@H](O)[C@@H](O)CN1CCCCCOCC1CCCCC1	GBA2	inhibitor, 4MU-β-D-glucopyranoside	HEK293T homogenates overexpressing GBA2	–	–	IC50	6 nM
Cc1cc(C)nc(SCC(=O)Nc2ncc(Cc3cccc(OCc4cn(Cc5ccc(C#N)cc5)nn4)c3)s2)n1	NAD-dependent protein deacetylase sirtuin-2 (SIRT2, Homo sapiens, UniProt Q8IXJ6)	inhibitor	–	–	–	IC50	150 ± 30 nM
Cc1nn(-c2cccc(N)c2)c(=O)c2cnc(Nc3ccc(N4CCNCC4)cc3)nc12	Serine/threonine-protein kinase D1 (PRKD1, Homo sapiens, UniProt Q15139)	enzyme activity, inhibitor	–	–	–	IC50	2630 nM
O=C(NCc1cccc(Cl)c1)C(C(F)(F)F)C(F)(F)F	Chymotrypsinogen A	enzyme activity, inhibitor, fluorescence	–	–	–	IC50	4700 nM
C=C(NC(=O)c1csc(-c2nc3c(cc2O)-c2nc(cs2)C(=O)NC(C(C)O)C(=O)NC(=C(C)OC)c2nc(cs2)C(=O)NC2c4nc(cs4)C(=O)NC(COC(=O)c4c5c6c(cccc6n4O)COC(=O)C(OC4CC(C)(O)C(N(C)C)C(C)O4)C2OC5)c2nc-3cs2)n1)C(N)=O (stereo not drawn)	–	–	ICR mice, Streptococcus pneumoniae ATCC 49169 infected, immunocompromised, blood	intravenous, 4 mg/kg/day once daily	–	Tmax	4.8 min
CN(C)c1ccc(CCC(=O)N2C(=O)C3(NC(c4ccc(F)cc4)C4(C(=O)Nc5ccccc54)N3Cc3ccc(F)cc3)c3ccccc32)cc1 (stereo not drawn)	Phosphatidylinositol 4,5-bisphosphate 3-kinase catalytic subunit gamma isoform (PIK3CG, Homo sapiens, UniProt P48736)	enzyme activity, inhibitor, ADP detection	–	–	–	IC50	49.4 nM
CC1Cc2ccccc2N1C1=C(c2ccc(F)cc2)C(=O)NC1=O (stereo not drawn)	Sensor histidine kinase AirS (Staphylococcus aureus, UniProt Q2FX96)	autophosphorylation, inhibitor, BODIPY-FL-ATPγS in-gel fluorescence	–	lower bound of confidence interval	–	IC50	> 130000 nM
CNC(=O)C1CCCN(C(=O)C2CC3CCC2N3C(=O)[C@@H]2C[C@@H](O)CN2C(=O)NCc2cccc(Cl)c2F)C1 (mixture of isomers)	Cytochrome P450 2D6 (CYP2D6, Homo sapiens, UniProt P10635)	enzyme activity, inhibitor, time-dependent inhibition	–	0.617 µM, preincubated with NADPH	relative to: negative control	remaining activity	109%
Cc1c(Cc2ccc(OC(C)C(=O)O)cc2)c2ccc(C(=O)N[C@@H](C)c3cccc(C(C)(C)C)c3)cc2n1C (stereo partly drawn)	PPARA ligand-binding domain	reporter gene, luciferase reporter	HEK293T, Gal4-PPARα LBD	–	–	IC50	1730 nM
CC1C(=O)N(S(=O)(=O)c2ccccc2)C1c1ccccc1 (stereo not drawn)	Chymotrypsinogen A	enzyme activity, inhibitor, fluorescence	–	–	–	IC50	700 nM
C=CC(=O)Nc1cccc(Cn2ncc3cnc(Nc4cnn(CCOC)c4)nc32)c1	PCTK1 human	binding, KINOMEscan	–	100 nM	lower = stronger binding	percent of control	86%
Nc1ncc(-c2cc(-c3cnn(CC(F)(F)F)c3)ncc2F)nc1C(=O)NC1CNCC(F)C1 (stereo not drawn)	MAST1	KINOMEscan	–	1 µM	relative to: DMSO control	remaining binding	80%
CC(=O)N[C@@H](CCCCN)C(=O)NCCOCCOC(=O)c1ccc(/N=N/c2ccc(N(C)C)cc2)cc1	Islet amyloid polypeptide (IAPP, Homo sapiens, UniProt P10997)	ThT displacement, ThT fluorescence	–	pH 7.4, preformed target-ThT complex, added: 5 µM ThT	–	IC50	2600 nM
O=C(CCCCc1ccc(OP(=O)(O)O)c(OP(=O)(O)O)c1)N1CCCCC1	Signal transducer and activator of transcription 5A, SH2 (Homo sapiens, UniProt P42229)	ligand displacement, FP	–	–	–	IC50	42000 nM
COC1CN([C@H]2CC[C@H]([C@@]3(C)Oc4c(Cl)cc(C(=O)NCc5c(SC)cc(C)[nH]c5=O)c(C)c4O3)CC2)C1	–	RNA-seq, refers to: HOMER1 mouse homolog	mouse, HT-1376 xenograft, whole blood	dose not given	relative to: vehicle	log2 fold change	0.795
OC[C@@H]1[C@@H](O)[C@H](O)[C@@H](O)CN1CCCCCOCc1ccc(-c2cc(C(F)(F)F)cc(C(F)(F)F)c2)cc1	GBA2	inhibitor, 4MU-β-D-glucopyranoside	HEK293T homogenates overexpressing GBA2	–	–	IC50	15 nM
CN1CCCNC(=O)c2cccc(c2)C(=O)NCCCN(C)CCCNc2cccc3c2C(=O)c2cccc(c2C3=O)NCCC1	SAS	RNA-Seq, refers to: RHBDD2 mRNA	–	1 µM, 6 h	relative to: untreated cells	log2 fold change	-0.371
CNS(=O)(=O)Nc1nccc(Cc2c(C)c3ccc(Oc4ncccc4F)cc3oc2=O)c1F	NCI-H2122	cell viability	–	7 days	–	IC50	50.6 nM
CC(C)Cn1cc(Cc2cccc(OC(C)(C)C(=O)O)c2)c2ccc(C(=O)N[C@@H](C)c3cccc(C(C)(C)C)c3)cc21	PPARA ligand-binding domain	reporter gene, luciferase reporter	HEK293T, Gal4-PPARα LBD	–	–	IC50	240 nM
OC[C@@H]1[C@@H](O)[C@H](O)[C@@H](O)CN1CCCCCOCc1ccc2ccccc2c1	GBA2	inhibitor, 4MU-β-D-glucopyranoside	HEK293T homogenates overexpressing GBA2	–	–	IC50	1 nM
Cc1c(Cc2cccc(OC(C)(C)C(=O)O)c2)c2ccc(C(=O)N[C@@H](C)c3cccc(C(C)(C)C)c3)cc2n1C(C)C	PPARA ligand-binding domain	reporter gene, luciferase reporter	HEK293T, Gal4-PPARα LBD	–	–	IC50	6340 nM
CC[C@@H]([C@@H](C)c1ccc(O)cc1)[C@@H](CC)c1ccc(O)cc1	Estrogen receptor (ESR1, Homo sapiens, UniProt P03372)	reporter gene, luciferase reporter (3xERE)	293T	24 h	–	EC50	2.85 nM

Repeated from above:
SMILES	target or system	test	test system	setting	scale	quantity	value
Cc1cc(C)c(S(=O)(=O)N(CC(=O)O)c2ccc(Nc3ccnc(N4CCCC4)n3)cc2)c(C)c1	RAC-gamma serine/threonine-protein kinase (AKT3, Homo sapiens, UniProt Q9Y243)	enzyme activity, inhibitor	–	–	–	IC50	> 100000 nM
Cc1ncsc1-c1ccc(C(C)NC(=O)C2CC(O)CN2C(=O)C(NC(=O)CCCCCCCCCCN2CCCC(Nc3ncc(Cl)c(Nc4ccccc4S(=O)(=O)C(C)C)n3)C2)C(C)(C)C)cc1 (stereo not drawn)	22Rv1	RNA-seq, refers to: SENP8 mRNA	–	concentration not given	relative to: DMSO	log2 fold change	-1.45
O=C(Nc1ccccc1O)C(C(F)(F)F)C(F)(F)F	Chymotrypsinogen A	enzyme activity, inhibitor, fluorescence	–	–	–	IC50	38000 nM
